{"data": "Assay results pooled from the literature", "note": "A part holds a random share of what one study measured."}
{"data": "Set 1", "cell line": "HEK-293T", "effect on": "pseudovirus infection", "method": "FDA-approved drug library screen", "organism": "VSV pseudotyped with SARS-CoV-2 spike", "concentration": "10 µM", "time": "16 h", "reference": "vehicle-treated"}
{"Structure (SMILES)": "Cc1cc(C2CCCCC2)n(O)c(=O)c1", "GFP-positive cells [%]": 58.3}
{"Structure (SMILES)": "OC(CNCC(O)C1CCc2cc(F)ccc2O1)C1CCc2cc(F)ccc2O1 (stereo not shown)", "GFP-positive cells [%]": 59.2}
{"Structure (SMILES)": "CCOc1ccccc1OCCN[C@H](C)Cc1ccc(OC)c(S(N)(=O)=O)c1", "GFP-positive cells [%]": 105}
{"Structure (SMILES)": "CC(C)[C@H](N)C(=O)OCC(CO)OCn1cnc2c(=O)nc(N)[nH]c21 (stereo partly shown)", "GFP-positive cells [%]": 61}
{"data": "Set 2", "target": "Phosphate system positive regulatory protein PHO4, full length, GST-tagged (PHO4, Saccharomyces cerevisiae, UniProt P07270, residues 1-312)", "method": "competition protein-binding microarray", "form": "double-stranded DNA, one strand shown", "matrix": "in vitro", "concentration": "2 µM", "setting": "whole 60-bp probe, lowest competitor level", "with": "Cbf1 competitor, 0.05 µM", "direction": "higher = stronger binding", "constant ends, left off below": "… GTCTTGATTCGCTTGACGCTGCTG", "Residues (chain)": "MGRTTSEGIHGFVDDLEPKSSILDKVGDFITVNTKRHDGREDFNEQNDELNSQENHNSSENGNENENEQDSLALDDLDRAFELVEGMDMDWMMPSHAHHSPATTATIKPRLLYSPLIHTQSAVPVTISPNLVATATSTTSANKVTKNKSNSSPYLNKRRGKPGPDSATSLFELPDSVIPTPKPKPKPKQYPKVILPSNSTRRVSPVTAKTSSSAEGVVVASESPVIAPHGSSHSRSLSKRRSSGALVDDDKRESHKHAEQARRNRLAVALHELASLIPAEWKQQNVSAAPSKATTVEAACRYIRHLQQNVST"}
{"Oligonucleotide": "GCTCATAAAACCATGCGCGTGTTTTTCTTCCACGGC", "fluorescence intensity [a.u.]": 10000}
{"Oligonucleotide": "TTAATATTATACGAAAACGTGCAAAACGGCACAAAC", "fluorescence intensity [a.u.]": 12300}
{"Oligonucleotide": "TGCGCAACAACTTGTCACCTTACTTTATGTCTAGAA", "fluorescence intensity [a.u.]": 3420}
{"Oligonucleotide": "GACTCCATCTGGGCACAACTGGGTTAGTGGTCAAGG", "fluorescence intensity [a.u.]": 4130}
{"Oligonucleotide": "TGCTTCGTTTTTTGCCACGTGTCGGATCTGGCCTAT", "fluorescence intensity [a.u.]": 19300}
{"Oligonucleotide": "GTTGCTGCACTTGCTTGCGTGGGTACTTTTTGTCGG", "fluorescence intensity [a.u.]": 7050}
{"Oligonucleotide": "GGTGTGCGGTTGCGGGGCGTGGGTATGCGCGCCGTT", "fluorescence intensity [a.u.]": 9550}
{"Oligonucleotide": "TACATTGCTGTATTGCACGGCCCTTGCGGGTATGGC", "fluorescence intensity [a.u.]": 5930}
{"data": "Set 3", "target": "Eukaryotic initiation factor 4A-I (EIF4A1, Homo sapiens, UniProt P60842, residues 1-406, full length assumed)", "method": "RNA Bind-n-Seq", "form": "RNA", "matrix": "in vitro", "concentration": "90 pmol", "setting": "4-mer, random 30-nt RNA, single round", "with": "3 µM iPr-DMDA-PatA, 2 mM ADP, 2 mM phosphate", "reference": "input library", "direction": "higher = stronger binding", "sequence of UniProt P60842 (whole entry, looked up)": "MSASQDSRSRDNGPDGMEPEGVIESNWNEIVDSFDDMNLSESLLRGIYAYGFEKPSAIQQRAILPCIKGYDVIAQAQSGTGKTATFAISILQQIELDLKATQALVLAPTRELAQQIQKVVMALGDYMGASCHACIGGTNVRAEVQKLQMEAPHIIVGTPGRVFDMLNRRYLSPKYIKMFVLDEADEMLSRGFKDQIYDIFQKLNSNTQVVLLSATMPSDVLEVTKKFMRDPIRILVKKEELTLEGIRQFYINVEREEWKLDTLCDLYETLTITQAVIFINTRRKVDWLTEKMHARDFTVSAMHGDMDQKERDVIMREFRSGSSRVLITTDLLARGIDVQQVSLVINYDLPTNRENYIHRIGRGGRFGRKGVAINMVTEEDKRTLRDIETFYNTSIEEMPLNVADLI"}
{"Oligonucleotide": "GACA", "4-mer enrichment": "1.14 fold"}
{"Oligonucleotide": "AUAU", "4-mer enrichment": "1.35 fold"}
{"Oligonucleotide": "GAUC", "4-mer enrichment": "1.1 fold"}
{"Oligonucleotide": "UAUC", "4-mer enrichment": "1.13 fold"}
{"Oligonucleotide": "CUAC", "4-mer enrichment": "1.01 fold"}
{"Oligonucleotide": "GCAC", "4-mer enrichment": "0.831 fold"}
{"Oligonucleotide": "CCUG", "4-mer enrichment": "0.819 fold"}
{"data": "Set 4", "target": "Replicase polyprotein 1ab, polymerase (rep, Severe acute respiratory syndrome coronavirus 2, UniProt P0DTD1)", "effect on": "enzyme activity", "mode": "inhibitor", "concentration": "20 µM"}
{"SMILES": "CC(=O)OCC(=O)[C@@]1(O)CC[C@H]2[C@@H]3CCC4=CC(=O)CC[C@]4(C)[C@@]3(F)[C@@H](O)C[C@@]21C", "inhibition": "8.77%"}
{"SMILES": "CCCCCCCCCCCCCCCC(=O)OC(CC(=O)[O-])C[N+](C)(C)C (stereo not shown)", "inhibition": "-3.54%"}
{"SMILES": "c1ccc(C(NCCNC(c2ccccc2)c2ccccc2)c2ccccc2)cc1", "inhibition": "-1.61%"}
{"SMILES": "CC(=O)O[C@]1(C(C)=O)CC[C@H]2[C@@H]3CCC4=CC(=O)CC[C@]4(C)[C@H]3CC[C@@]21C", "inhibition": "-12.1%"}
{"SMILES": "CC[C@H](CC[C@@H](C)[C@H]1CC[C@H]2[C@@H]3CC=C4C[C@@H](O[C@@H]5O[C@H](CO)[C@@H](O)[C@H](O)[C@H]5O)CC[C@]4(C)[C@H]3CC[C@]12C)C(C)C", "inhibition": "-3.77%"}
{"SMILES": "CCS(=O)(=O)c1ccc2oc(-c3ccc4ccccc4c3)nc2c1", "inhibition": "-11.3%"}
{"SMILES": "CC(C)=CCC[C@](C)(O[C@@H]1O[C@H](CO)[C@@H](O)[C@H](O)[C@H]1O)[C@H]1CC[C@]2(C)[C@@H]1[C@H](O)C[C@@H]1[C@@]3(C)CC[C@H](O[C@@H]4O[C@H](CO)[C@@H](O)[C@H](O)[C@H]4O[C@@H]4O[C@H](CO)[C@@H](O)[C@H](O)[C@H]4O)C(C)(C)[C@@H]3CC[C@]12C", "inhibition": "-9.6%"}
{"SMILES": "CCN(CC)C(C)CN1c2ccccc2Sc2ccccc21 (stereo not shown)", "inhibition": "-1.46%"}
{"SMILES": "NC(N)=NCCNS(=O)(=O)c1cccc2cnccc12", "inhibition": "5.97%"}
{"SMILES": "NCCc1c[nH]c2ccc(C(N)=O)cc12", "inhibition": "-8.79%"}
{"SMILES": "COc1ccc2c(NC(=O)Nc3cccc(C(F)(F)F)n3)ccnc2c1", "inhibition": "0.71%"}
{"SMILES": "COc1ccc(Oc2c(Cl)cnn(C3c4ccccc4-c4ccccc43)c2=O)cc1", "inhibition": "3.46%"}
{"SMILES": "COc1cc(N2CCOCC2)ccc1Nc1ncc(Cl)c(Nc2ccccc2NS(C)(=O)=O)n1", "inhibition": "4.38%"}
{"SMILES": "CC(C)[C@H](O)C(=O)N[C@@H](C)C(=O)N[C@@H]1C(=O)N(C)CCc2ccccc21", "inhibition": "-5.79%"}
{"SMILES": "O=C(CN1CCNCC1)NC1CCCCC1", "inhibition": "0.24%"}
{"SMILES": "CC(=O)Oc1ccc(C(c2ccc(OC(C)=O)cc2)c2ccccn2)cc1", "inhibition": "-5.16%"}
{"SMILES": "O=C(O)CCCc1c[nH]c2ccccc12", "inhibition": "-6.37%"}
{"SMILES": "COc1cccc(-c2c(C)n(Cc3c(F)cccc3C(F)(F)F)c(=O)n(C[C@H](NCCCC(=O)O)c3ccccc3)c2=O)c1F", "inhibition": "2.15%"}
{"SMILES": "O=C(OC(C(F)(F)F)C(F)(F)F)N1CCN(Cc2cccc(Oc3ccccc3)c2)CC1", "inhibition": "18%"}
{"SMILES": "Cc1cc(Nc2ncnc3ccc(-c4ccc(CNCCS(C)(=O)=O)o4)cc23)ccc1Oc1ccn2ncnc2c1", "inhibition": "15.8%"}
{"SMILES": "COc1ccc(CNC(=O)/C=C/c2ccc3[nH]cc(CCN(C)C)c3c2)cc1", "inhibition": "-11.4%"}
{"SMILES": "CN(CCOc1ccc(-c2ccc3c(c2)OCO3)cc1C(C)(C)C)CC(=O)O", "inhibition": "14.2%"}
{"SMILES": "CCC(=O)c1ccc(O)cc1", "inhibition": "-0.27%"}
{"SMILES": "O=C(C[S+]([O-])Cc1ccco1)NC/C=C\\COc1cc(CN2CCCCC2)ccn1 (stereo not shown)", "inhibition": "0.14%"}
{"SMILES": "Cn1nnc(-c2ccc(-c3ccc(N4C[C@H](CO)OC4=O)cc3F)cn2)n1", "inhibition": "1.85%"}
{"data": "Set 5", "target": "Replicase polyprotein 1ab, main protease (rep, Severe acute respiratory syndrome coronavirus 2, UniProt P0DTD1)", "effect on": "enzyme activity", "mode": "inhibitor", "concentration": "20 µM", "setting": "primary screen"}
{"Structure (SMILES)": "CCOc1cc(C(Nc2cc(C)ccn2)c2ccc3cccnc3c2O)ccc1OC (stereo not shown)", "inhibition [%]": 98.9}
{"Structure (SMILES)": "CC[C@@H](c1ccc(F)c(F)c1)n1c(C(=O)OC)c(-c2ccno2)[nH]c1=S", "inhibition [%]": 43.7}
{"Structure (SMILES)": "CC/C=C(\\C(=O)N[C@@H]1C(=O)N2C(C(=O)OCOC(=O)C(C)(C)C)=C(COC(N)=O)CS[C@H]12)c1csc(N)n1", "inhibition [%]": 32.7}
{"data": "Set 6", "target": "RING finger protein unkempt homolog, zinc fingers 1-6, SBP tag (UNK, Homo sapiens, UniProt Q9C0B0, residues 30-357)", "method": "RNA Bind-n-Seq", "form": "RNA", "matrix": "in vitro", "concentration": "100 nM", "setting": "RNA with constant flanks, vertebrate orthologous sites, ends assumed", "reference": "input RNA pool", "direction": "higher = stronger binding", "constant ends, left off below": "GGGAGUUCUACAGUCCGACGAUC … CAACAGAGGAUUGAGCAUCA", "sequence of UniProt Q9C0B0 (30-357, looked up)": "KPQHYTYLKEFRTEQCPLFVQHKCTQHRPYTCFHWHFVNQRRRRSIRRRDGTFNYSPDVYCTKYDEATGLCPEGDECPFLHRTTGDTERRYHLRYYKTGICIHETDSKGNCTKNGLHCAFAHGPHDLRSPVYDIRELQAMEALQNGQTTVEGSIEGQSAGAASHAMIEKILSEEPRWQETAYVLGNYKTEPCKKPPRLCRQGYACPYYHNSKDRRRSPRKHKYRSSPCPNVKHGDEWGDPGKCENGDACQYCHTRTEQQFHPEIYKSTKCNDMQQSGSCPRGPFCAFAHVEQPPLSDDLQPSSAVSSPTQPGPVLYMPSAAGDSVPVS"}
{"Oligonucleotide": "AAAUUUAUUUUAUGCCCUGGACUCCCUACCGCACCGAUACGUUAAUAGAAUAUGCCUCUUUAGAAGAUUUUCAAAACAGCCGCCAGACAACAACAUACAAACUUCCAAACCGAGUAGACG", "bound/input enrichment [ratio]": 2.96}
{"Oligonucleotide": "GGUGUUUUCAAACAAUAGGAAGCUUUUAUUGUUUUACAGUUUAGUGUAUGGUUUCUAUGUGGAAGACUAAACUCAUGCUUAUAGCUAAAGGGGUGUUUGCCAACUAAAUUUAAGAUGCAG", "bound/input enrichment [ratio]": 0.642}
{"Oligonucleotide": "CAGCUUAGCGAACACAGUUUUGGAGAAAUAAUAAUAAUAAUAUUUAAAAAAUAAAGAGCCUGAUUGGUAUCUUUUUGUCUAACUGUUUUUCAAAGAGAAAGUUUAAAAGAAAAAAAAAGA", "bound/input enrichment [ratio]": 0.475}
{"Oligonucleotide": "ACAUGCGUGCGCUUCUCUACAGUUUAAGAUGCUUCCUUUGGUUCCUCACAUAUCUCAUCCUAUUGACUUACCUAUUUUUUAAAAAUAGCAGUAUAAACUCAAAGUGGACUUAACACAGUG", "bound/input enrichment [ratio]": 1.23}
{"Oligonucleotide": "GACCUCCUGAACUUCUAGCUUUCCAGUUGGGGCUGUUUUAGAUACUGAUUUUCUUUUCCUUAGAGUUUUUCCCUGUUUCCUGCCUUUCUUCCCCUGUUCCCAAGGUUUGACUUCCGGAUU", "bound/input enrichment [ratio]": 2.32}
{"Oligonucleotide": "ACGCUUUGAUAUUAAAUUCUACAUAAAAAGCAGCUGAUCGUAAGCACAACUCUCUCCUCCUAGCCAUUUAAAAAGGUAAAAAACAAAAAAGAAAACCUACUAGUCUUGAACAAACUGUCA", "bound/input enrichment [ratio]": 0.84}
{"Oligonucleotide": "AUCCCUCAGUGACAGUAUGCCAUCUGUAGCAGAUUCCCACUCCAGUCAUUUUUCUGAAUUUAGUUGUUCUGACCUAGAAAGCAUGAAAACUUCUUGUAGUCAUGGUUCCAAUGAUUAUCA", "bound/input enrichment [ratio]": 0.773}
{"Oligonucleotide": "GUGGGUUGUACCUCCUGAACUUCUAGCUUUCAAGUUGUGGCUUUUUUUUUUUCUUUUCUUUAGAAUUUUUCCCUGUUUCCCACCUUCUCUUCCCCUGUUCCCAAGGUCUGACUCAUGGAU", "bound/input enrichment [ratio]": 3.16}
{"note": "Excerpt of the above (set 4):"}
{"SMILES": "O=C(CN1CCNCC1)NC1CCCCC1", "inhibition": "0.24%"}
{"SMILES": "CC(=O)Oc1ccc(C(c2ccc(OC(C)=O)cc2)c2ccccn2)cc1", "inhibition": "-5.16%"}
{"SMILES": "O=C(O)CCCc1c[nH]c2ccccc12", "inhibition": "-6.37%"}
{"SMILES": "COc1cccc(-c2c(C)n(Cc3c(F)cccc3C(F)(F)F)c(=O)n(C[C@H](NCCCC(=O)O)c3ccccc3)c2=O)c1F", "inhibition": "2.15%"}
{"SMILES": "O=C(OC(C(F)(F)F)C(F)(F)F)N1CCN(Cc2cccc(Oc3ccccc3)c2)CC1", "inhibition": "18%"}
{"SMILES": "Cc1cc(Nc2ncnc3ccc(-c4ccc(CNCCS(C)(=O)=O)o4)cc23)ccc1Oc1ccn2ncnc2c1", "inhibition": "15.8%"}
{"SMILES": "COc1ccc(CNC(=O)/C=C/c2ccc3[nH]cc(CCN(C)C)c3c2)cc1", "inhibition": "-11.4%"}
